Published values collected from several papers.
Numbered parts are unrelated; each lists some results of a single study. Positions count from the first letter of the parent shown.

Study 1
Target: CCND2, cyclin fold, Cln2 fusion (human)
Technique: yeast growth competition, sequencing
Sample: yeast
Setting: weak parent motif
Baseline: not given
Reading: higher = stronger binding
Endpoint: normalised enrichment score
Starting sequence: viral docking peptide; KGVKRKLFAEDSS
R5H: -0.04
V3H: 0.0968
F8C: 0.308
S13A: 0.16
K4M: -0.798
E10G: -0.047
E10R: -0.379

Study 2
Target: Prothrombin, mature alpha-thrombin (F2, Homo sapiens, UniProt P00734)
Technique: aptamer microarray, sandwich
Form: DNA with 2'F-ANA
Sample: in vitro
Tested at: 200 nM
Setting: whole 15-mer aptamer, many near background
With: Cy3 exosite-II aptamer, 400 nM
Reading: higher = stronger binding
Endpoint: mean fluorescence intensity
Strand: GGTTGGTGTGGTTGG
2'F-ANA at 1 8 9 14: 130 a.u.
2'F-ANA at 4 5 7 9 11: 62.4 a.u.
2'F-ANA at 1 3 5 7 9 10 11: 45.3 a.u.
2'F-ANA at 1 2 3 4 5 6 7 8 9 10 12 15: 127 a.u.
2'F-ANA at 2 3 6 8 9 11 12 13 15: 808 a.u.
2'F-ANA at 5 7 10 12 14 15: 42.5 a.u.
2'F-ANA at 6 7 8 10 13 15: 140 a.u.
2'F-ANA at 1 2 3 6 8 12 13 14 15: 92.6 a.u.

Study 3
Target: vanadate, free oxyanion
Technique: microfluidic competitive inhibition
Sample: in vitro, cell-free expressed
Tested at: not given
Setting: derived from inhibition constants, unchanged parent 676 nM
Reading: lower = stronger binding
Endpoint: oxyanion analog dissociation constant
Starting sequence: PafA, mature enzyme, eGFP fusion (Elizabethkingia meningoseptica, UniProt Q9KJX5); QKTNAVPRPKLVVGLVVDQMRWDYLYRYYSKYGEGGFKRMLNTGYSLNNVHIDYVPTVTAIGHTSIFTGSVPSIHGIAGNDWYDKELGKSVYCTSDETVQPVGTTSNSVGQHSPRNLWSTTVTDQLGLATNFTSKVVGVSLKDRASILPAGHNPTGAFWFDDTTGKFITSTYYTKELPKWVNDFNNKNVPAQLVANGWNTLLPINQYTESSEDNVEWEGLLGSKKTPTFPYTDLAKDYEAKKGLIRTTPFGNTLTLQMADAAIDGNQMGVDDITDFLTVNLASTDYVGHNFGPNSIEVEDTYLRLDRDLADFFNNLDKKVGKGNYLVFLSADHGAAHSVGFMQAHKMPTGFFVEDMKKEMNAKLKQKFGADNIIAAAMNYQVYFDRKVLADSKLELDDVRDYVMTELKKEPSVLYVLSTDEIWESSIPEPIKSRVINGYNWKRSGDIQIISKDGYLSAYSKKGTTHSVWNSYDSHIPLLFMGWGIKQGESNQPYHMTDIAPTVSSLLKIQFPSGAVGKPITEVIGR
F37V: 634 nM
G438A: 420 nM
K462V: 871 nM
P512G: 522 nM
S433V: 568 nM
G488A: 631 nM
T419V: 713 nM
Q267V: 1.16 µM
T278V: 1.05 µM
F352G: 515 nM
G33A: 550 nM
G321A: 597 nM
G219A: 817 nM
F184G: 3.07 µM
Y29V: 1.12 µM
Q257G: 711 nM
S73V: 1.61 µM
V339G: 633 nM
E522V: 636 nM

Study 4
Target: ABI1, truncated, D143A, DHFR fusion (Arabidopsis thaliana)
Technique: DHFR PCA, deep sequencing
Sample: yeast
Setting: methotrexate growth selection, single substitutions
With: (+)-ABA 710 µM
Baseline: wild-type fitted maximum
Reading: higher = stronger binding
Endpoint: relative binding score
Starting sequence: PYL1, truncated, DHFR fusion (Arabidopsis thaliana); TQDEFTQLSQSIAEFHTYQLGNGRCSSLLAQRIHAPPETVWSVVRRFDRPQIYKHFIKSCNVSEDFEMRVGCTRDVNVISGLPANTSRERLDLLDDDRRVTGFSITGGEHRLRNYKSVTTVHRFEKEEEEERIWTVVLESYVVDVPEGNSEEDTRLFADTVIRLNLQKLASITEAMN
N61V: 105%
N149S: 98.8%
R88I: 111%
K54R: 71%
S87D: 8.25%
G148V: 71.6%
D97P: 104%
R111T: 49.3%

Some of these lines once more (study 2):
2'F-ANA at 1 3 5 7 9 10 11: 45.3 a.u.
2'F-ANA at 1 2 3 4 5 6 7 8 9 10 12 15: 127 a.u.
2'F-ANA at 2 3 6 8 9 11 12 13 15: 808 a.u.
2'F-ANA at 5 7 10 12 14 15: 42.5 a.u.
